Experimental data of several laboratories.
Lines come from different studies, so protocols differ. ± marks the error that the study gave.

Compound	target	assay	system	setting	scale	measurement	result
CC[C@H](C)[C@H](NC(=O)[C@H](CC(=O)O)NC(=O)[C@H](CO)NC(C)=O)C(=O)N[C@@H](CSCc1ccccc1)C(=O)N[C@@H](CC(=O)O)C(=O)N[C@@H](Cc1ccccc1C)C(=O)N[C@H](C(=O)N[C@@H](CC(C)C)C(=O)N[C@@H](CCCCN)C(=O)N[C@@H](CC(N)=O)C(=O)N[C@@H](Cc1ccc(O)cc1)C(=O)N1CCC[C@H]1C(N)=O)[C@@H](C)CC	Histone lysine acetyltransferase CREBBP, KIX domain (Crebbp, Mus musculus, UniProt P45481)	KIX–MLL binding, inhibitor, fluorescence polarization	–	–	baseline: wild-type MLL 847–858	fold affinity enhancement	> 50 fold
CC[C@H](C)[C@H](NC(=O)[C@@H](NC(=O)[C@H](Cc1ccc(O)cc1)NC(=O)[C@H](Cc1ccc(OP(=O)(O)O)cc1)NC(=O)[C@H](CC(N)=O)NC(=O)[C@H](CCC(=O)O)NC(=O)[C@H](Cc1ccccc1)NC(=O)[C@@H](NC(=O)[C@H](CO)NC(=O)[C@H](CCC(=O)O)NC(=O)[C@H](CCCCN)NC(=O)[C@H](Cc1ccccc1)NC(=O)[C@@H](N)CCCCN)C(C)C)C(C)C)C(=O)N[C@@H](Cc1ccc(O)cc1)C(=O)N[C@@H](CO)C(=O)N[C@@H](CO)C(=O)N[C@@H](CCSC)C(=O)N[C@@H](CC(C)C)C(=O)N[C@@H](Cc1ccc(O)cc1)C(=O)N[C@@H](CCCNC(=N)N)C(N)=O	Fibroblast growth factor 14 (Homo sapiens, UniProt Q92915)	–	–	–	–	koff	0.0897 ± 0.039 s⁻¹
CN(C(=O)Cn1c(=O)oc2ccc(-c3ccc(OCC[18F])cc3)cc21)c1ccccc1	Tspo (Rattus norvegicus, UniProt P16257)	PET	Sprague-Dawley rat focal ischemia, ipsilateral striatum	dose not given, unit not given	baseline: contralateral side	binding potential (BPND)	2.72 ± 0.27
Cn1ccc2c(N3CCN(CCCCOc4ccc5c(c4)NC(=O)CC5)CC3)cccc21	D(2) dopamine receptor, long isoform (DRD2, Homo sapiens, UniProt P14416)	Gi1-γ2 dissociation, agonist, BRET	human cells	concentration not given	baseline: quinpirole	activity	inactive
N#Cc1cnc(Nc2nc3ccccc3o2)nc1-c1ccc(Br)cc1	Grm5 (Rattus norvegicus, UniProt P31424)	calcium mobilization, negative allosteric modulator	–	together with: glutamate EC80	baseline: maximal glutamate response	maximal response	3.8 ± 1.2%
CNc1ccccc1C(=O)O[C@H]1C[C@H](n2cnc3c(N)ncnc32)O[C@@H]1COP(=O)(O)OP(=O)(O)O	Unconventional myosin-Va (Gallus gallus, UniProt Q02440, D297C/G292C/I296C/S293C/V295G)	van't Hoff analysis	–	concentration not given, together with: EDTA	–	∆H of ligand binding	-1.9 ± 2.2 kcal/mol
C=C1C(=O)O[C@@H]2[C@H]3C(CO)=CC(=O)C3=C(C)C[C@H](O)[C@@H]12	MAL12 (Saccharomyces cerevisiae S288c, UniProt P53341)	fluorescence quenching	–	concentration not given, 310 K	–	number of binding sites	0.78
CN(C1COC1)C(C)(C)/C=C(\C#N)C(=O)N1CCC[C@H]1Cn1nc(-c2ccc(Oc3ccccc3)cc2F)c2c(N)ncnc21	Tyrosine-protein kinase (Rattus norvegicus, UniProt Q5S255)	–	rat, PBMC	oral, 40 mg/kg, 24 (unit not given)	–	receptor occupancy	41 ± 15%
CCOCCNC(=O)N1CCC[C@H](c2n[nH]c(-c3ccccc3)n2)C1	Aromatase (CYP19A1, Homo sapiens, UniProt P11511)	enzyme activity, inhibitor, MFC to HFC conversion	–	10 µM, together with: MFC substrate	–	apparent Vmax	0.63 pmol HFC/min/pmol P450
O=C(CCCCCCS)Nc1ccccc1	HDAC8 (Homo sapiens, UniProt Q9BY41)	ITC in four buffers	–	concentration not given, pH 7.5	–	protons released on binding	0.39 ± 0.02 protons per ligand
CC1=C(O)C(=O)C=C2C1=CC=C1[C@@]2(C)CC[C@@]2(C)[C@@H]3C[C@](C)(C(=O)NCCOCCOCCOCCOCC(=O)N[C@H](C(=O)N4C[C@H](O)C[C@H]4C(=O)N[C@@H](C)c4ccc(-c5scnc5C)cc4)C(C)(C)C)CC[C@]3(C)CC[C@]12C	Nuclear receptor subfamily 4 group A member 1 (Nr4a1, Mus musculus, UniProt P12813)	degrader	mouse, MC-38 tumour model, tumour	concentration not given	–	duration of degradation	≥ 4 days
O=C(c1ccc(C(=O)N2CCC(N3CCCCC3)CC2)cc1)N1CCC(N2CCCCC2)CC1	Lethal(3)malignant brain tumor-like protein 3, MBT domains (Homo sapiens, UniProt Q96JM7)	FRAP	human cells	up to 0.1 mM	–	fluorescence recovery after photobleaching	no effect
COC(=O)c1ccc(CNC(=O)[C@@H]2C[C@@H](O)CN2C(=O)Cc2ccccc2)cc1	von Hippel-Lindau disease tumor suppressor, with Elongin B/C (VHL, Homo sapiens, UniProt P40337)	isothermal titration calorimetry	–	concentration not given, 25 °C	–	binding enthalpy (ΔH)	-1.89 ± 0.04 kcal/mol
